Results gathered from unrelated publications.
Parts stem from different laboratories: compare values within a part only.

Set 1
Target: Ras GTPase-activating protein-binding protein 1, RRM domain (G3BP1, Homo sapiens, UniProt Q13283)
UniProt Q13283, sequence (whole entry, looked up): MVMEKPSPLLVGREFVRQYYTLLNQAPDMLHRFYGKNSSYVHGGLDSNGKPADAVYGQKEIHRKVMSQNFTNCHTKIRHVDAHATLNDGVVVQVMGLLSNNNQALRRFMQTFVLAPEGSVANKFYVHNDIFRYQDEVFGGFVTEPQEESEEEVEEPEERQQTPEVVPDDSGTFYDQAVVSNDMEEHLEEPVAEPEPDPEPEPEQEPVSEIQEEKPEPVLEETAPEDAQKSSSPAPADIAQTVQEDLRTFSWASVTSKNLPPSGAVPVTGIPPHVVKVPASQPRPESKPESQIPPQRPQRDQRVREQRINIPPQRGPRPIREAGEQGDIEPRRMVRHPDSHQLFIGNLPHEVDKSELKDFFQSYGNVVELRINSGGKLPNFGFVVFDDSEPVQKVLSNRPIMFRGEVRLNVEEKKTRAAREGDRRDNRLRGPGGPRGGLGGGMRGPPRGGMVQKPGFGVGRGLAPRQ
Method: RNA Bind-n-Seq
Form: RNA
Sample: in vitro
Concentration: 1 µM
Notes: whole 134-nt RNA, ends assumed
Added: 150 mM KCl
Reference: input library
Reading: higher = stronger binding
Endpoint: log2 enrichment
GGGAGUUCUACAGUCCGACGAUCUGGGAGGUGGAUUUUGUUUAUUUUUUUAGCUCAUUUCCAGGGGUGGGAAUUUUUUUUUAAUAUGUCUCAUGAAUAAAGUUGUUUUUGAAAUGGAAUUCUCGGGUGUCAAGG: 0.96
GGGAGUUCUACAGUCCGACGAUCUCAGGUCCUUAAGUACCUUCGUAUUACUUUUAGCAGGAAAAACGGCAUGUUUUGCAUCUGGUGUGCAAUGUGAAGAGUCCUUCAAAAAUGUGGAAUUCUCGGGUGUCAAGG: -0.22
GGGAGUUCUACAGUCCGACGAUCUAACUUUAGAGGAGGAUCUGAUGGAUAUGGCCGUGGACGUGGAUUUGGGGAUGGCUAUAAUGGGUAUGGAGGAGGACCUGGAGGUGGCAAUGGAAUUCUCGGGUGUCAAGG: -0.699
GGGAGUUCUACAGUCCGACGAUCCACAGACAACACGCACCCACACAGACACAGAGGGAAGGGGUUGGGAUGGGGACAGGGUGCACAGCAGGGAGGGGUAGGACCCCAGCCCCUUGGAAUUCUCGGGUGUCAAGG: -0.336
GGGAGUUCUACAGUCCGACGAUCCCUCAAGUCCUGUGCUACACAUCGUAUGUACCGAAUCGGGGCGGCGGGGCGGGAAAGUAUUAUGUUACGCCGUUCGGAUCUGCACUUCCAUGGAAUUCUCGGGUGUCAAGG: -0.0113
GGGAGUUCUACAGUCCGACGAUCCAAGUCCUGUGCUACACAUCGUAUGUACCGAAUCGGAAAAAGGUUUUUUUGGUGGAAAGUAUUAUGUUACGCCGUUCGGAUCUGCACUUCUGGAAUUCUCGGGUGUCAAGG: -0.319
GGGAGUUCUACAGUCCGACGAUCUCCUGUGCUACACAUCGUAUGUACCGAAUCGGGAAAAAGGGUUUUUUUGGGUUUUUGGGAAAGUAUUAUGUUACGCCGUUCGGAUCUGCAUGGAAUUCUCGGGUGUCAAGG: -0.241
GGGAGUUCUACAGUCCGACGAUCCUGUGCUACACAUCGUAUGUACCGAAUCGGGGUUUUUUGGGGUUUUUUGGGUUUUUUGGGGAAAGUAUUAUGUUACGCCGUUCGGAUCUGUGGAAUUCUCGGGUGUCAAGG: -0.183
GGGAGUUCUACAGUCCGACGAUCGCAGGAAGUAAAAACAAAUGGAAAUGCUUCGGAUAGUGGCAGGGGUGGGGGUUGCUAAGGAAAGGGUGGCAUGGGAGUGGGUAAAGAGUUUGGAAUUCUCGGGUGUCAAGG: 1.21
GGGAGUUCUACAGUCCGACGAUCCCUCAAGUCCUGUGCUACACAUCGUAUGUACCGAAUCGGGGUGGGGUGGUGGGAAAGUAUUAUGUUACGCCGUUCGGAUCUGCACUUCCAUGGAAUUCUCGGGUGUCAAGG: 0.115
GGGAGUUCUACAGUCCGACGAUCUGGUGGACAGAAGGCACUGCAGCCUGAAAUGGCAGAGUCUGGUGCUGACGAUCCGCGAGAAGAUCAAUGCUGCCAUCCAGGACAUGCCAGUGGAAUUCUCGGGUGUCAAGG: -0.488
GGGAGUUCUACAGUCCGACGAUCCUGUGCUACACAUCGUAUGUACCGAAUCGGGCCCCCCCGGCCCCCCCGGGGCCCCCCCGGGGAAAGUAUUAUGUUACGCCGUUCGGAUCUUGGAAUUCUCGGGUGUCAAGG: -0.52
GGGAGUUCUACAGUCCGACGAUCUUUUCAAAAUAAGGAGCUUCCCAGACCUGUGUUAGAAGGGCAGCAGUCAGAGAGGACCCCAAAUAAUCGCCCUGAUGCCCCUAAGGAGAAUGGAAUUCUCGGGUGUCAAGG: -0.133
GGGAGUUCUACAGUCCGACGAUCCCUGUGCUACACAUCGUAUGUACCGAAUCGGGCCCCCCCGGGGCCCCCCCGGCCCCCCCGGAAAGUAUUAUGUUACGCCGUUCGGAUCUGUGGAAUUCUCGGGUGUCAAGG: -0.532

Set 2
Target: Interferon regulatory factor 7, full length, phosphomimetic (IRF7, Homo sapiens, UniProt Q92985, residues 1-503, S101K/S471D/S472D/S475D/S476D/S477D/S483D/S484D/S487D)
Method: protein-binding microarray
Form: double-stranded DNA, one strand shown
Sample: in vitro
Concentration: 250 nM
Notes: 60-bp whole probe
Added: salmon DNA 0.4 mg/ml
Reference: random background probes
Reading: higher = stronger binding
Endpoint: log fluorescence
Constant ends, left off below: GCCTAGCAC … GTCTTGATTCGCTTGACGCTGCTG
Residues (chain): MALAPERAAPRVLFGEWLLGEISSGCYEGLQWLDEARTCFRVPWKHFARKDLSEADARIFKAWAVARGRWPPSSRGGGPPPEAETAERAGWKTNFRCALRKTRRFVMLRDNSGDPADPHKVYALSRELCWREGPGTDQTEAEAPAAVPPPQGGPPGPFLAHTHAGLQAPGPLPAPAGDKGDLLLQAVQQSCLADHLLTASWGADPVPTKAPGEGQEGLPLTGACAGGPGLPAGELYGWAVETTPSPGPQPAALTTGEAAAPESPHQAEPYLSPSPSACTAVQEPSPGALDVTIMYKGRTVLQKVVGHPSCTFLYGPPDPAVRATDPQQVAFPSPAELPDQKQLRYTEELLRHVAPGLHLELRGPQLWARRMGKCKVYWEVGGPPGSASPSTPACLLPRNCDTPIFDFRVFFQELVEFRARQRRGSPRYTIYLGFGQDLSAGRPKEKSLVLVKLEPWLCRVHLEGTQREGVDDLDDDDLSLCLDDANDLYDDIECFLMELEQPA
GAACCTTGGGCTCTAGGTTCGTGCTAG: 1.33 z-score
GACGGTTTCCTTCTCATGACGTGCTAG: 1.89 z-score
TCACTTCTGCATTACAGACTGTGCTAG: 0.759 z-score
GACGGTATAGGTCTCGGGACGTGCTAG: -0.182 z-score
TTGGATTTCAGTTTCGATTAGTGCTAG: 9.08 z-score
TTAGGTATCAGACTGGATTAGTGCTAG: -0.156 z-score
GACGATTTCGGGTTTCGATACGTGCTA: 6.59 z-score
CTTTCTATCTCTGTTTTTGCGTGCTAG: 2.17 z-score
TTAGGTTTCGCGTATCGGTTAGTGCTA: 3.64 z-score
CACCCACTCTTTCCTCACCATGTGCTA: 0.882 z-score
GACGGTTTCGGACTGGGCACGTGCTAG: 3.48 z-score
GACGGACTGGACTCTCGGGACGTGCTA: -0.959 z-score
TTAGGTATCGGTATCGTTTAGTGCTAG: 3.04 z-score
GTCATTATCCTTGTCCCTCCGTGCTAG: 0.755 z-score
TTAGGGTTCCTTCTCCTTTAGTGCTAG: -0.0445 z-score
TTAGGTTTGCTTCTCCTTTAGTGCTAG: 0.997 z-score
GACGGTACCGACACTGGGGACGTGCTA: -0.507 z-score
TCATTTTAAAGTTTCAGACTGTGCTAG: 1.53 z-score
TTAGATTTCAGTTTCGATCAGTGCTAG: 4.96 z-score
TTAGGTCTCGTTTTCGGTTAGTGCTAG: 8.17 z-score

Set 3
Target: RING finger protein unkempt homolog, zinc fingers 1-6, SBP tag (UNK, Homo sapiens, UniProt Q9C0B0, residues 30-357)
UniProt Q9C0B0, sequence (30-357, looked up): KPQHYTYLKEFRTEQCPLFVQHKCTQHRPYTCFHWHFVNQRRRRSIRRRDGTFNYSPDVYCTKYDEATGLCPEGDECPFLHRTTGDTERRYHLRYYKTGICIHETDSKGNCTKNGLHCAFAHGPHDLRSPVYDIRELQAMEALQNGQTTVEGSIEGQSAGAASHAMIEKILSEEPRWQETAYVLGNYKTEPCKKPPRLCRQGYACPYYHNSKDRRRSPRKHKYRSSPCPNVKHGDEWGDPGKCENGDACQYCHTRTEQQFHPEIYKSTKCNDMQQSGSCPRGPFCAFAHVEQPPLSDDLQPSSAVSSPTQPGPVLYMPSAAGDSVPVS
Method: RNA Bind-n-Seq
Form: RNA
Sample: in vitro
Concentration: 100 nM
Notes: RNA with constant flanks, vertebrate orthologous sites, ends assumed
Reference: input RNA pool
Reading: higher = stronger binding
Endpoint: bound/input enrichment
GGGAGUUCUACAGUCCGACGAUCUGUGUUGGUGCAGAGCAUCUGUACCAGUGCUCAUCAUCCCUUCUUCAUACCAACUGUCUCUAGUUGUAGGAAUUUAAUAUUUUUAAAAGUUUUACAUUGCUGUAUAUUCAAAGAUUUGUUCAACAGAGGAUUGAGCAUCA: 0.571 ratio
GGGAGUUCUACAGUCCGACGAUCUACUGUUGUUAAGCACUGUUCCAGACCGUGUCUGACUUUAGUGUAACCUAGGAGAUUUUAUAGUUUUAUUUUAAUGGAAUCCUGCCUGAUGCAGAGCAGUGGGGAGAGCAGUCUUCUACGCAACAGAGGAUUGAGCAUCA: 2.54 ratio
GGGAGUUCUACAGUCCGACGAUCGUGACUUUGGACGUCCGUUCAUCCUCGGUGUAGGGAUUACUUAGUGCUGGGCCUUGCGCGUUUGGUUUUUUUCUUGACCGGAGGCCUCUGCAGCAACCAUGUUACGCCAGAUCGUGGGUCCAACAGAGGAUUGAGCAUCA: 0.33 ratio
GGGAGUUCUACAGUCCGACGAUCUAAAGCCAUCUUUUCACAUUUUCUGUAAAUAAUGGGUAGUCAUUUUUUACGUUUUCUUUUUAGUGCUGUUUUAACAAUGUGGAUAGACCAUAAAUGUACUUGCUGAACUCAUUCAUUUUUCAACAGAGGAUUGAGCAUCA: 0.935 ratio
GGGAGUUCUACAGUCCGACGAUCUGCUGUUAAUGCACUGUAUACCAGGCAUUGUCUGAACUUAGUGUAAUCUAGGAGAUUUUAUAGUUUUAUUUUAAUGAAGUACGGAUUGAAGCAAAGCUGUUAGGAAAAUGUAGUCUUUUACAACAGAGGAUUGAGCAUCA: 2.07 ratio
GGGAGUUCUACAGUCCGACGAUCAAUGACAGUUGGAAGAAAAACGAGGUUGUGGUUAAAAAGUAGGAGCUAUUAGGAAGAAAAGUGAUAAAUGUCAAGACUCAGGUAGCAAGAGAAUAGAGAUGCAGGUCACUGAGUCUCCAGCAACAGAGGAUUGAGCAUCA: 0.446 ratio
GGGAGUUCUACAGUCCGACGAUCAUUCAUUUGAUUAAAAAUUAUUUAGAUAAGAAAUUAUUACUGUUUAUCUUUGCUUUCAGAUAACGUAUCCUAUUUUUUAUCCAUUUUGCAAAAUACCUCUUGUGUGUGGUUUCUUAACCUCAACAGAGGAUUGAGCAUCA: 0.501 ratio
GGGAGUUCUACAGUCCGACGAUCUAAUUCAAUGGUUGAAGGCUCAGAACUCAAGAAGGUUCGCUCCAACUCUAGAAUUUACCACCGAUAUUUUCUCUUAGAUGCUGAUAUGCAGUCUCUGAGAUGGGAACCAUCCAAGAAGGACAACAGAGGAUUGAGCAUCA: 0.269 ratio
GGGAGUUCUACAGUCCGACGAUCCCUGAAGCUUUGUGUUUGGCUGCACCUGCAUAAGCUGCUACAAAUAGAAUAAAGAAUUCAUAGCCUGUAUCUAUCAUUUAGAUGCAUGGAAAAAUGGGCUUUGCACACAAUGGGUUUGAACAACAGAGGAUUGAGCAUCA: 2.03 ratio
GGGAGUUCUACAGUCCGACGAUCAGCAACUCAAGGAUUCAGAACUGGGUUUACAAAUGUCCCAAGCAGAUAUGGAACAAACGCUCAUGGUCAACCCCGACCAUAAUAAACACCAUUAUUUAUUGUACUUAAGGGUAUUGACUUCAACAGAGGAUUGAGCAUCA: 0.248 ratio
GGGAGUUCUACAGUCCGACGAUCUGUCCUUGCUAAGCACUGCGUUCCAGACCGUGUCUGACUUAGUUAACCUAGGAGAUUUUAUAGUUUUACUUUAAUGAAGUCCUGAUUAACACAGAGCAGUGGAGAGACCGUGCCCCUGUGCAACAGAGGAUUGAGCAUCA: 0.459 ratio

Set 4
Target: Hepatocyte nuclear factor 3-beta, forkhead domain (FOXA2, Homo sapiens, UniProt Q9Y261, residues 142-269)
Method: protein-binding microarray
Form: double-stranded DNA, one strand shown
Sample: in vitro
Concentration: not given
Notes: k-mer, scored over probes, only values ≥0.25
Reading: higher = stronger binding
Endpoint: E-score
Target sequence (chain): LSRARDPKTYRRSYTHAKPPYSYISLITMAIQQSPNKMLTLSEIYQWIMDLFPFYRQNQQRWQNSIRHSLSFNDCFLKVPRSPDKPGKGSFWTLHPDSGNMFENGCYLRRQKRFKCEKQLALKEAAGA
TAATATTA: 0.357
ACTGAATA: 0.287
TCGGTAAA: 0.279
ATGTTAAA: 0.307
ATGTAGTC: 0.253
TATTATAA: 0.296
GCATAACA: 0.302
CTAACACA: 0.298
AACTATTA: 0.253
GATGTTAC: 0.255
AAATCAAA: 0.262
ATATAGAC: 0.346
GTCCATTA: 0.331
TGTGTAAA: 0.34
AAACTACA: 0.28

Set 5
Target: Histone acetyltransferase KAT6A, winged helix 1, GST fusion (KAT6A, Homo sapiens, UniProt Q92794, residues 1-85)
Method: protein binding microarray
Form: double-stranded DNA, one strand shown
Sample: in vitro
Concentration: not given
Notes: 8-mer, flanks averaged, mean of 2 arrays, mostly near background
Reference: not given
Reading: higher = stronger binding
Endpoint: E-score
Construct (chain): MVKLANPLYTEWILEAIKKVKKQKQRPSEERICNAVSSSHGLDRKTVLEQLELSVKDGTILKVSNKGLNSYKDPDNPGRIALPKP
CAATAGGA: -0.12
ATCGCATC: 0.102
CGTAATCC: 0.195
CAAGCTTA: 0.0314
CTCCCGAA: -0.0724
CTCTGGGA: -0.107
AAAGTGAG: -0.27
ACCGTGTG: 0.161
AGTGTTAG: -0.162
GATGCTGA: -0.15
CACGCGAG: 0.0682
AACTCTTA: -0.129
CAATGATC: 0.0494
AGCACTTG: -0.149
CTCGTATC: -0.169
AAAAAAGA: -0.214
CTGCGCGC: 0.41
CCTTAAAC: 0.0486
CCGACAGG: 0.0677
AGCAGGTA: -0.035
GGGGAGGA: 0.0636
GGACATAA: -0.0174

A few entries again (set 5):
ACCGTGTG: 0.161
AGTGTTAG: -0.162
GATGCTGA: -0.15
CACGCGAG: 0.0682
AACTCTTA: -0.129
CAATGATC: 0.0494
AGCACTTG: -0.149
CTCGTATC: -0.169
AAAAAAGA: -0.214
CTGCGCGC: 0.41
CCTTAAAC: 0.0486
CCGACAGG: 0.0677
AGCAGGTA: -0.035
